Measurements of several laboratories.
Compare with care: the assays were run in different laboratories. Values joined by “and” are separate records of one study, mostly repeats; a detail may differ.
EGFR L858R/T790M: Epidermal growth factor receptor (EGFR, Homo sapiens, UniProt P00533, L858R/T790M)
EGFR L858R: Epidermal growth factor receptor (EGFR, Homo sapiens, UniProt P00533, L858R)
EGFR: Epidermal growth factor receptor (EGFR, Homo sapiens, UniProt P00533)
EGFR del747-752/P753S: Epidermal growth factor receptor (EGFR, Homo sapiens, UniProt P00533, del747-752/P753S)

Compound	target	assay	test system	conditions	scale	endpoint	result
CNC1C[S+]2CC[S+]3CC[S+](C1)[Ru-4]321([N]=C=S)[n]2c3ccc(OC)cc3c3c4c(c5cc(F)c[n+]1c5c32)C(=O)NC4=O (centres unmarked)	EGFR (Homo sapiens, UniProt P00533, del752-759)	KinomeScan	–	0.1 µM	reference: untreated	remaining binding	98%
COc1ccc(NC(=O)Nc2ccc3c(c2)C(=O)N(C(C)CO)CC(C)C(CN(C)Cc2ccc4c(c2)OCO4)O3)cc1 (centres unmarked)	EGFR L858R/T790M	kinase activity	–	0.03 µM, T790M/L858R	reference: control	remaining activity	95%
CNC(=O)C1CCN(c2cc(C)c(F)cc2NC(=O)c2ccc(-c3cc(O)ccc3C)c(C)c2)CC1	EGFR (Homo sapiens, UniProt P00533, G719S)	binding, competition with immobilised ligand	–	1 µM	–	remaining binding	56%
Cc1cnc2nc1Nc1cccc(c1)COC/C=C/COCc1cc(ccc1OCCN1CCOCC1)N2	EGFR L858R	–	–	concentration not given	reference: untreated control	remaining activity	82%
O=C=[N][Ru-4]123([n]4c5ccc(O)cc5c5c6c(c7cc(F)c[n+]1c7c54)C(=O)NC6=O)[S+]1CC[S+]2CC[S+]3CC1 (centres unmarked)	EGFR L858R	enzyme activity	–	100 nM, human enzyme, together with: 10 µM ATP	reference: untreated	remaining activity	88%
COc1c(OCCCN2CCOCC2)ccc2c1N=C(NC(=O)c1cnc(N)nc1)N1CCN=C21	EGFR	kinase activity, inhibitor	–	1 µM	reference: untreated control	remaining activity	100%
CCN1CCN(Cc2ccc(C(=O)Nc3ccc(C)c(NCc4cnc5[nH]ccc5c4OC)c3)cc2C(F)(F)F)CC1	EGFR (Homo sapiens, UniProt P00533, T790M)	binding, competition with immobilised ligand	–	1 µM	–	remaining binding	39%
COc1c(Cl)cccc1Nc1c(-c2ccncc2C#C[C@@]2(C)CCCN2C(=O)/C=C/CN(C)C)[nH]c2c1C(=O)NCC2	EGFR	cysteine engagement, chemoproteomic profiling, item: peptide 791-802	NCI-H2073	10 µM, 2 h	reference: DMSO, lower = stronger engagement	log2 fold change	2.98
C=CC(=O)N1CCc2ccc(-n3c(=O)ccc4cnc5ccc(-c6cnn(C)c6)cc5c43)cc21	EGFR L858R/T790M	KINOMEscan	–	1 µM	reference: DMSO control	remaining binding	72%
CC(C)=CC1OC(C)(C)C2C=C3C(=O)C(Cl)=CC(O)C3C3C(O)C4OC4C(=O)C132 (centres unmarked)	EGFR del747-752/P753S	cell-free assay, competition with immobilised ligand	–	10 µM	–	remaining binding	96%
O=C(O)CCC(=O)c1cccc(NS(=O)(=O)c2c[nH]c3ncccc23)c1	EGFR	kinase activity, radiometric	–	10 µM	–	remaining activity	98%
O=C(Cc1ccc(OCc2ccccc2)cc1)NC1(C(=O)O)CCN(C(=O)c2ccc(-c3cccc(Cl)c3)cc2)CC1	EGFR	enzyme activity, inhibitor	–	10 µM	–	activity vs control	119%
COCC12C(=O)NC3C4(C(OC)CC1O)C1CC5(O)C(OC)C(O)C(OC(C)=O)(C1C5OC(=O)c1ccccc1)C3(O)C(OC)C24 (centres unmarked)	EGFR L858R	kinase activity, inhibitor, ProQinase kinase profiling	–	25 µM	reference: control	remaining activity	96% and 94%
CCN1CCN(Cc2ccc(NC(=O)c3ccc(C)c(NC(=O)c4cncc(-c5cccs5)c4)c3)cc2C(F)(F)F)CC1	EGFR (Homo sapiens, UniProt P00533, L861Q)	binding, competition with immobilised ligand	–	1 µM	–	remaining binding	0.1%
CC(C)[C@H](NC(=O)[C@H](CCC(=O)O)NC(=O)[C@H](CCC(=O)O)NC(=O)[C@@H]1Cc2ccc(O)cc2CN1C(=O)[C@H](CCC(=O)O)NC(=O)[C@H](CC(=O)O)NC(=O)[C@H](CC(=O)O)NC(=O)[C@H](CCC(=O)O)NC(=O)c1ccc2c(c1)C1(OC2=O)c2ccc(O)cc2Oc2cc(O)ccc21)C(N)=O	EGFR	enzyme activity, substrate	–	–	–	Km	18.3 µM and 18 µM
Nc1ncc2c(n1)-c1c([nH]c3ccc(C4=CCOCC4)cc13)CCC2	EGFR del747-752/P753S	binding, competition with immobilised ligand	–	1 µM	–	remaining binding	76%
C=C1CCCCCCCCCC(CO)C1=O (centres unmarked)	EGFR	cell-free assay	–	10 µM	–	remaining signal	100%
